{"data": "Results of several laboratories", "note": "A part holds a random share of what one study measured. Changes are numbered by the printed parent chain."}
{"data": "Block 1", "target": "tungstate, free oxyanion", "technique": "microfluidic competitive inhibition", "sample": "in vitro, cell-free expressed", "concentration": "not given", "notes": "derived from inhibition constants, unchanged parent 2230 nM", "reading": "lower = stronger binding", "starting sequence": "PafA, mature enzyme, eGFP fusion (Elizabethkingia meningoseptica, UniProt Q9KJX5); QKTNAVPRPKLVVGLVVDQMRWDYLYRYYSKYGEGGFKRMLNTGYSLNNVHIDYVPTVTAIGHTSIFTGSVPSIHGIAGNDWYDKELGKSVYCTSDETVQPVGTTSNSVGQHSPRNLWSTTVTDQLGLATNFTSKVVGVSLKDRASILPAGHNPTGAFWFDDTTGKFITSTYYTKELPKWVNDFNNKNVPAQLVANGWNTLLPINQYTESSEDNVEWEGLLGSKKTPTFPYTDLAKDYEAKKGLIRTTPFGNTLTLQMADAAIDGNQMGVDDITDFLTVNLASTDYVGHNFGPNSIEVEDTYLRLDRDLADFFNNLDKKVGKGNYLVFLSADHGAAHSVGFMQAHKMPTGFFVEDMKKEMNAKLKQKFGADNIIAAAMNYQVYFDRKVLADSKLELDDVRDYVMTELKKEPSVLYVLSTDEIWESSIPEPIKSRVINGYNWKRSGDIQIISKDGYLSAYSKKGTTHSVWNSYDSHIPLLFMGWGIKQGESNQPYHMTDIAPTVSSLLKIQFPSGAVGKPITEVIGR"}
{"Substitution": "G151A", "oxyanion analog dissociation constant": "1.52 µM"}
{"Substitution": "Q448V", "oxyanion analog dissociation constant": "2.81 µM"}
{"Substitution": "S330G", "oxyanion analog dissociation constant": "2.06 µM"}
{"Substitution": "E216G", "oxyanion analog dissociation constant": "1.94 µM"}
{"Substitution": "E209G", "oxyanion analog dissociation constant": "1.53 µM"}
{"data": "Block 2", "target": "PABPC1L2, full length, GST fusion (mouse, UniProt A0ABA7IW68)", "technique": "RNAcompete", "form": "RNA", "sample": "in vitro", "concentration": "20 nM", "notes": "7-mer, probes averaged, single round", "reference": "mean of 7-mers", "reading": "higher = stronger binding", "Target sequence (chain)": "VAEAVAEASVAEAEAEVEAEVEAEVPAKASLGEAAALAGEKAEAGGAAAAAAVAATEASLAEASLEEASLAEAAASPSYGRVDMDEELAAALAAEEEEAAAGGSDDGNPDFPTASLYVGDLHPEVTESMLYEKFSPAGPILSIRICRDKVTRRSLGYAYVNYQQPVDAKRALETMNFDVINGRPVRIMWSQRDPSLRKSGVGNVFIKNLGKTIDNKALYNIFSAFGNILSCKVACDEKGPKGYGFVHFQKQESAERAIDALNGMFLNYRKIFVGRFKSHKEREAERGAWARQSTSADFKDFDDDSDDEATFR"}
{"Sequence": "GCGCCAC", "7-mer Z-score": -0.122}
{"Sequence": "UCCGCGG", "7-mer Z-score": -0.291}
{"Sequence": "GCUCUUU", "7-mer Z-score": -0.298}
{"Sequence": "GUAUCUC", "7-mer Z-score": -0.251}
{"Sequence": "AUAGACA", "7-mer Z-score": 0.00979}
{"Sequence": "AUUGAUU", "7-mer Z-score": -0.146}
{"Sequence": "UGUGUCG", "7-mer Z-score": -0.373}
{"Sequence": "GCCAGCU", "7-mer Z-score": -0.175}
{"data": "Block 3", "target": "CCNA2, cyclin fold, Cln2 fusion (human)", "technique": "yeast growth competition, sequencing", "sample": "yeast", "notes": "strong parent motif", "reference": "not given", "reading": "higher = stronger binding", "starting sequence": "viral docking peptide; YKVKRRLVFGADD; partner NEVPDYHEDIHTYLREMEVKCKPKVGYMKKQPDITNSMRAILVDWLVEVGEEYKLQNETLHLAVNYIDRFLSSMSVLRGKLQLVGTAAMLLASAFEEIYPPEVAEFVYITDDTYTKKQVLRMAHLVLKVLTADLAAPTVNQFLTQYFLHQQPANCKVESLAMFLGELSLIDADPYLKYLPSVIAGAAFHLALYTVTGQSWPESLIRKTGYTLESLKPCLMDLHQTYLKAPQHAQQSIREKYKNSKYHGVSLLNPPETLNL"}
{"Substitution": "YKVKRRLVFYADD [G10Y]", "normalised enrichment score": 5.51}
{"Substitution": "YKVKRRLVRGADD [F9R]", "normalised enrichment score": 0.671}
{"Substitution": "YKVKRRLVNGADD [F9N]", "normalised enrichment score": 0.208}
{"Substitution": "YKVKRRLVFKADD [G10K]", "normalised enrichment score": 6.37}
{"Substitution": "YKVKRRLVKGADD [F9K]", "normalised enrichment score": 0.561}
{"Substitution": "YEVKRRLVFGADD [K2E]", "normalised enrichment score": 5.65}
{"Substitution": "YKVKRRLVFFADD [G10F]", "normalised enrichment score": 5.85}
{"Substitution": "YKVKRRSVFGADD [L7S]", "normalised enrichment score": 0.574}
{"Substitution": "YKVKRRLTFGADD [V8T]", "normalised enrichment score": 6.15}
{"Substitution": "YKVKYRLVFGADD [R5Y]", "normalised enrichment score": 1.11}
{"Substitution": "YKVKDRLVFGADD [R5D]", "normalised enrichment score": 0.222}
{"Substitution": "YKVKRRLVFGAYD [D12Y]", "normalised enrichment score": 5.86}
{"Substitution": "YKVKRALVFGADD [R6A]", "normalised enrichment score": 5.68}
{"Substitution": "YKVKRRLVFGASD [D12S]", "normalised enrichment score": 6.32}
{"Substitution": "YCVKRRLVFGADD [K2C]", "normalised enrichment score": 5.98}
{"Substitution": "YKPKRRLVFGADD [V3P]", "normalised enrichment score": 5.84}
{"data": "Mixed results", "technique": "cross-linking MS"}
{"Molecule": "GYS1 (Homo sapiens, UniProt P13807)", "partner": "DDX5 (Homo sapiens, UniProt P17844)", "test system": "cell fractions", "setting": "with: DSSO", "quantity": "cross-linked residues", "result": "T395 to K470"}
{"Molecule": "GART (Homo sapiens, UniProt P22102)", "partner": "HNRNPU (Homo sapiens, UniProt Q00839)", "setting": "hits only", "quantity": "interaction screen", "result": "cross-linked"}
{"Molecule": "LCP1 (Homo sapiens, UniProt P13796)", "partner": "ABCF3 (Homo sapiens, UniProt Q9NUQ8)", "test system": "cell fractions", "setting": "with: DMTMM", "quantity": "cross-linked residues", "result": "K294 to D57"}
{"Molecule": "PFDN5 (Homo sapiens, UniProt Q99471)", "partner": "BAZ2A (Homo sapiens, UniProt Q9UIF9)", "test system": "cell fractions", "setting": "with: DSSO", "quantity": "cross-linked residues", "result": "K47 to T682"}
{"note": "For quick reference, copied from above (mixed results):"}
{"Molecule": "LCP1 (Homo sapiens, UniProt P13796)", "partner": "ABCF3 (Homo sapiens, UniProt Q9NUQ8)", "test system": "cell fractions", "setting": "with: DMTMM", "quantity": "cross-linked residues", "result": "K294 to D57"}
{"Molecule": "GART (Homo sapiens, UniProt P22102)", "partner": "HNRNPU (Homo sapiens, UniProt Q00839)", "setting": "hits only", "quantity": "interaction screen", "result": "cross-linked"}
{"Molecule": "PFDN5 (Homo sapiens, UniProt Q99471)", "partner": "BAZ2A (Homo sapiens, UniProt Q9UIF9)", "test system": "cell fractions", "setting": "with: DSSO", "quantity": "cross-linked residues", "result": "K47 to T682"}
